# Experimental data from different studies.
# “And” joins repeats or separate records; there may be more than shown. Numbers after ± are the reported error.
SMILES,cell line,assay,test system,conditions,scale,endpoint,value
CN[C@H](CC(C)C)C(=O)N[C@H]1C(=O)N[C@@H](CC(N)=O)C(=O)N[C@H]2C(=O)N[C@H]3C(=O)N[C@H](C(=O)N[C@H](C(=O)O)c4cc(O)cc(O)c4-c4cc3ccc4O)[C@H](O)c3ccc(c(Cl)c3)Oc3cc2cc(c3O[C@@H]2O[C@H](CO)[C@@H](O)[C@H](O)[C@H]2O[C@H]2C[C@](C)(N)[C@H](O)[C@H](C)O2)Oc2ccc(cc2Cl)[C@H]1O,sheep erythrocytes,,,"512 µg/mL, 37 °C",relative to: Triton X-100,hemolysis,< 5%
O=C(Nc1c2c(cc3c1CCC3)CCC2)NS(=O)(=O)/C=C/c1nccs1,Caco-2,,,"2 µM, 120 min, pH 7.4",,Papp A to B,9.46 ± 0.361 ×10⁻⁶ cm/s
Cc1cc(C(=O)NC(C)(C)COc2cccc3c2C(N)=NS(=O)(=O)N3)cc(C)n1,human peripheral blood lymphocytes,"CBPI, concurrent micronucleus test",,"2000 µg/mL, 4 h, together with: rat liver S9",relative to: vehicle control,cytotoxicity,-4%
CCN1/C(=C/C(C)=O)Sc2ccc(F)cc21,human hepatocytes,LC-MS,,radiolabelled compound,,number of metabolites identified,8
O=C(O)c1ccc(O)cc1,HaCaT,"cytotoxicity, MTT",,"48 h, 10% FBS",,IC50,> 200 µM
CCCC(=O)OCSc1ccccc1C(=O)NCCC(=O)NCCn1ccc(=O)c2cc3c(cc21)OCO3,CEM-SS,"cell viability, XTT",RPMI with 10% FBS,6 days,,TC50,> 100 µM
C[C@H](CCC(=O)NCCS(=O)(=O)O)[C@H]1CC[C@H]2[C@@H]3[C@H](O)C[C@@H]4C[C@H](O)CC[C@]4(C)[C@H]3C[C@H](O)[C@]12C,HCE,MTT,,up to 50 µM,,cytotoxicity,not toxic
COc1cc2ncnc(Nc3ccc(Oc4ccccc4)cc3C)c2cc1OC.O=C(O)C(F)(F)F,MeWo (NF1),resazurin,,"3 µM, 72 h, together with: trametinib 0 nM",,viability fraction,0.778
O=C(/C=C\n1cnc(-c2cc(C(F)(F)F)cc(C(F)(F)F)c2)n1)NNc1ccccn1,primary human keratinocytes uninfected,live/dead staining,,20 h,,CC50,6.95 µM
Cc1cc(NC(=O)Nc2ccc3c(c2)OC(F)(F)O3)cc(C(F)(F)F)n1,THP-1-derived macrophages (PMA),cytotoxicity,,,,IC50,16 µM
O=C(N[C@@H]1CC[C@@H](c2cccc(F)c2F)CN(CC(F)(F)F)C1=O)N1CCC(n2c(=O)[nH]c3ncccc32)CC1,cryopreserved human hepatocytes,,,concentration not given,,intracellular accumulation,≥ 12 fold
CCCC(=O)OCSc1ccccc1C(=O)NCCn1cc(C(=O)NCc2cccc(C)n2)c(=O)c2cc3c(cc21)OC(F)(F)O3,"human PBMCs, PHA-P-stimulated",XTT,,7 days,,TC50,> 100 µM
Nc1ccn([C@@H]2O[C@H](CO)[C@@H](O)C2(F)F)c(=O)n1,primary human keratinocytes uninfected,live/dead staining,,20 h,,CC50,< 0.08 µM
CC[C@H](C)C(=O)N1CCC(NC(=O)Nc2ccc(OC(F)(F)F)c(F)c2)CC1,Caco-2,Caco-2 permeability,,"10 µM, 60 min, pH 7.4 apical, 7.4 basolateral, mean, together with: verapamil",apical to basolateral,percent recovery,43%
COc1cc(/C=C/C=C2\SC(=S)NC2=O)cc(OC)c1O,HeLa,CellTiter-Glo,,"20 µM, 24 h, unit not given",relative to: untreated,viability,0.911 and 0.845
Cc1ccc(-c2nc(NS(=O)(=O)c3ccccc3)nc(N)c2-c2nc3ccccc3s2)cc1,Vero,cytotoxicity,,72 h,,maximum non-toxic concentration,90 µg/mL
CCC[C@H](CC)Oc1ccc(C(=O)NCCOCCOCCOCC(=O)N[C@H](C(=O)N2C[C@H](O)C[C@H]2C(=O)NCc2ccc(-c3scnc3C)cc2)C(C)(C)C)cc1NC(=O)c1nnn(-c2cc(OC)ccc2OC)c1C,SNU-C4 HiBiT-PXR knock-in,CellTiter-Glo,,"72 h, 10% FBS",,CC50,> 30 µM
Cc1cn([C@H]2C[C@H](N=[N+]=[N-])[C@@H](CO)O2)c(=O)[nH]c1=O,CEM-SS,"cell viability, XTT",,together with: glutathione 1 mM,,TC50,> 0.5 µM
C[C@@H](c1ccc2nccn2c1)n1nnc2ncc(-c3cnn(C)c3)nc21,human hepatocytes,item: CYP1A2,,"concentration not given, 48 h",relative to: omeprazole,mRNA induction,1%
C=CC(=O)N(C)CCOc1c(N)ncnc1-c1cc(F)cc(NC(=O)c2ccc(C3CC3)cc2F)c1C,human hepatocytes,"mRNA induction, inducer, item: CYP2B6",,,,EC50,5.47 µM
CC(=O)ON=C1C=CC(=C(C#N)c2ccccc2)C=C1,HDF-1 human skin fibroblasts,MTT,,"72 h, serum-free DMEM",relative to: Candida albicans MIC,IC50 relative to MIC,> 12 multiple of MIC
OCCN1CCN(CCCN2c3ccccc3Sc3ccc(Cl)cc32)CC1,differentiated SH-SY5Y,,,"10 µM, 24 h, compound alone",relative to: vehicle,cytotoxicity,not toxic
CCCC(=O)OCSc1ccccc1C(=O)NCCn1cc(C(=O)NCc2ccncc2)c(=O)c2cc3c(cc21)OCO3,CEM-SS,"cell viability, XTT",RPMI with 10% FBS,6 days,,TC50,23 ± 3.55 µM
CC1(C)CCC(c2ccc(Cl)cc2)=C(CN2CCN(c3ccc(C(=O)NS(=O)(=O)c4ccc(N[C@H](CCN5CCOCC5)CSc5ccccc5)c(S(=O)(=O)C(F)(F)F)c4)cc3)CC2)C1,murine ileum enteroid monolayers,drug in secreted lipoproteins,,"50 % saturated solubility, together with: oleic acid/2-monoolein micelles",relative to: taurocholate/phosphatidylcholine micelles,max increase of Papp,14.9 fold
COc1ccc2nccc(Cc3cccc(-c4ccc(CO)cc4)c3)c2c1,human hepatocytes,,,"10 µM, 2 h",,parent remaining,< 1%
Cc1ccc(-c2nc(NS(=O)(=O)c3ccc(C)cc3)nc(N)c2-c2nc3ccccc3s2)cc1,Vero,cytotoxicity,,72 h,,maximum non-toxic concentration,100 µg/mL
CCCC(=O)OCSc1ccccc1C(=O)NCCOc1ccnc2ccc(C(F)(F)F)cc12,CEM-SS,"cell viability, XTT",RPMI with 10% FBS,6 days,,TC50,81.9 µM
CC[C@H]1OC(=O)[C@H](C)[C@@H](O[C@H]2C[C@@](C)(OC)[C@@H](O)[C@H](C)O2)[C@H](C)[C@@H](O[C@@H]2O[C@H](C)C[C@H](N(C)C)[C@H]2O)[C@](C)(O)C[C@@H](C)/C(=N\OCOCCOC)[C@H](C)[C@@H](O)[C@]1(C)O,human hepatocytes,item: CYP1A2,,"concentration not given, 3 days",relative to: negative control,mRNA level,< 4 fold
C[C@H](O)c1cnc(NS(=O)(=O)c2ccc(C(F)(F)F)c(Cl)c2)nc1,cryopreserved human hepatocytes,pan-CYP inhibition,,"1 µM, together with: 1 mM 1-aminobenzotriazole and 15 µM tienilic acid",,metabolism inhibited by ABT and TA,24%
CCCC(=O)OCSc1ccccc1C(=O)NCCCn1ccc(=O)c2cc3c(cc21)OCO3,CEM-SS,"cell viability, XTT",RPMI with 10% FBS,6 days,,TC50,16.1 ± 0.6 µM
Cc1noc(C)c1Cn1cc(N2C(=O)CN(Cc3cccc(O)c3)C2=O)cn1,human blood lymphocytes,,,"823.8 µg/mL, 3 h, with 2% S9",,aberrant cells without gaps,2%
CC(C)n1ncc2c(C(=O)NCC3(C)CNC3)cc(C3CC3)nc21,HeLa,neutral red uptake,,"0.11 µM, 2% FBS",relative to: positive control,viability,100%
CN(C(=O)C(C)(C)c1cc(C(F)(F)F)cc(C(F)(F)F)c1)c1cnc(N2C[C@H]3COCCN3C[C@H]2CO)cc1-c1ccc(F)cc1[14CH3],cryopreserved human hepatocytes,,,"5 µM, 1 h",,turnover,81.8%
Cc1ccc(CNC(=O)Cn2cc(CSc3nc4ccccc4[nH]3)nn2)cc1,HEK293,MTT,,31.3 ppm,,viability,17.2%
CCCC(=O)OCSc1ccccc1C(=O)NCCC(=O)N1CCN(C(=O)Cn2ccc(=O)c3cc4c(cc32)OCO4)CC1,CEM-SS,"cell viability, XTT",RPMI with 10% FBS,6 days,,TC50,> 100 µM
C#Cc1c(F)ccc2cc(O)cc(-c3ncc4c(N5CC6CCC(C5)N6)nc(OC[C@@]56CCCN5C[C@H](F)C6)nc4c3F)c12,Caco-2,,,"no inhibitor, BCRP (novobiocin) set",,Papp (A to B),< 0.479 ×10⁻⁶ cm/s
CCCC(=O)OCSc1ccccc1C(=O)NCCn1cc(C(=O)NCc2cccnc2)c(=O)c2cc3c(cc21)OCO3,CEM-SS,"cell viability, XTT",RPMI with 10% FBS,6 days,,TC50,> 100 µM
Cc1ccc(-c2ccc3c(c2)C=C(C(=O)Nc2ccc(C[N+](C)(C)C4CCOCC4)cc2)CCC3)cc1.[Cl-],MAGI cells,cytotoxicity,,attachment,,TC50,> 10 µM

# A few entries again:
SMILES,cell line,assay,test system,conditions,scale,endpoint,value
O=C(O)c1ccc(O)cc1,HaCaT,"cytotoxicity, MTT",,"48 h, 10% FBS",,IC50,> 200 µM
Cc1cn([C@H]2C[C@H](N=[N+]=[N-])[C@@H](CO)O2)c(=O)[nH]c1=O,CEM-SS,"cell viability, XTT",,together with: glutathione 1 mM,,TC50,> 0.5 µM
Cc1cc(C(=O)NC(C)(C)COc2cccc3c2C(N)=NS(=O)(=O)N3)cc(C)n1,human peripheral blood lymphocytes,"CBPI, concurrent micronucleus test",,"2000 µg/mL, 4 h, together with: rat liver S9",relative to: vehicle control,cytotoxicity,-4%
O=C(N[C@@H]1CC[C@@H](c2cccc(F)c2F)CN(CC(F)(F)F)C1=O)N1CCC(n2c(=O)[nH]c3ncccc32)CC1,cryopreserved human hepatocytes,,,concentration not given,,intracellular accumulation,≥ 12 fold
CC(=O)ON=C1C=CC(=C(C#N)c2ccccc2)C=C1,HDF-1 human skin fibroblasts,MTT,,"72 h, serum-free DMEM",relative to: Candida albicans MIC,IC50 relative to MIC,> 12 multiple of MIC
C#Cc1c(F)ccc2cc(O)cc(-c3ncc4c(N5CC6CCC(C5)N6)nc(OC[C@@]56CCCN5C[C@H](F)C6)nc4c3F)c12,Caco-2,,,"no inhibitor, BCRP (novobiocin) set",,Papp (A to B),< 0.479 ×10⁻⁶ cm/s
